Experimental data pooled from the literature.
Numbered parts are unrelated; each lists some results of a single study. Changes are numbered by the printed parent chain.

Sample 1
Target: Histone acetyltransferase KAT6A, winged helix 1, GST fusion (KAT6A, Homo sapiens, UniProt Q92794, residues 1-85)
Technique: protein binding microarray
Form: double-stranded DNA, one strand shown
Medium: in vitro
Concentration: not given
Setting: 8-mer, flanks averaged, mean of 2 arrays, mostly near background
Relative to: not given
Reading: higher = stronger binding
Target sequence (chain): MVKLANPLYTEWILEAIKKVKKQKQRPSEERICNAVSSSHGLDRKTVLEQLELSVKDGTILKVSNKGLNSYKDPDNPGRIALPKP
Sequence	E-score
ATCACAAC	-0.0227
CAAGCTGG	-0.154
ATCTCGCA	-0.191
GCTGACAC	0.0497
ACAACACG	-0.00288
AACCTCAA	-0.14
AACTTGAC	-0.265
AGTAGGCC	-0.107
CGCGATAA	0.134
ACCTAAAT	-0.087
ATTACTGC	0.0319
GGTCAACA	-0.258
ACCTGTGC	-0.0335
ATGGCTGC	-0.126
CCAAATAA	-0.191
GGGTTACA	0.1
CGTACTCC	0.118
CAGACGAA	-0.164
AGAGCCAC	-0.12
AGATTTCC	-0.0466
ACTATTGG	0.142

Sample 2
Target: ABI1, truncated, D143A, DHFR fusion (Arabidopsis thaliana)
Technique: DHFR PCA, deep sequencing
Medium: yeast
Setting: methotrexate growth selection, single substitutions
Together with: (+)-ABA 200 µM
Relative to: wild-type fitted maximum
Reading: higher = stronger binding
Parent: PYL1, truncated, DHFR fusion (Arabidopsis thaliana); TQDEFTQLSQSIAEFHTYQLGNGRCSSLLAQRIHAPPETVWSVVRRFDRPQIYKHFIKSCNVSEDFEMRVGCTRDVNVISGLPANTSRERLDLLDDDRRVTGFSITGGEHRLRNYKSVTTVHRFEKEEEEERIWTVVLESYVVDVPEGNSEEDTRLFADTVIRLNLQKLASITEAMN
Variant	relative binding score [%]
F15V	64.3
S150F	56.3
N165L	1.02
N77R	107
Q2A	95.4
Y18G	80.9
S27L	4.94
T1V	103
Y115N	-1.89
E139L	77.5
A35N	22
R99H	101
G107Q	77.4
T135H	-17.8

Sample 3
Target: UBE2E3 UBC core domain (UniProt Q969T4)
Chain of UniProt Q969T4 (whole entry, looked up): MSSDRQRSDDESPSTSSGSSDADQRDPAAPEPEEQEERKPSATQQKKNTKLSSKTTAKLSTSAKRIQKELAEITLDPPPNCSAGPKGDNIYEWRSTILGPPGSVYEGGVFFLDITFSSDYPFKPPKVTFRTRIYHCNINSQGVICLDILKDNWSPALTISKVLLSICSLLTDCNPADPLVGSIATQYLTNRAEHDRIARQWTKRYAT
Technique: yeast two-hybrid
Medium: yeast
Setting: mostly zero background
Relative to: not given
Reading: higher = stronger interaction
B1: RNF111 RING domain (UniProt Q6ZNA4); chain EGTEEDTEEKCTICLSILEEGEDVRRLPCMHLFHQVCVDQWLITNKKCPICRVDIEAQLPSE
B2: NEURL1 RING domain (UniProt O76050); chain VTPGLGQWSDECTICYEHAVDTVIYTCGHMCLCYACGLRLKKALHACCPICRRPIKDIIKT
B3: TRIM43 RING domain (UniProt Q96BQ3); chain FSHAFQKELTCVICLNYLVDPVTICCGHSFCRPCLCLSWEEAQSPANCPACREPSPKMDFKT
B4: VPS41 RING domain (UniProt P49754); chain KGVLVDEENICESCLSPILPSDAAKPFSVVVFHCRHMFHKECLPMPSMNSAAQFCNICSAKNRGPGSAI
B5: SH3RF2 RING domain (UniProt Q8TEC5); chain DDLTLLDLLECPVCFEKLDVTAKVLPCQHTFCKPCLQRVFKAHKELRCPECRTPVFSNIEAL
B6: MKRN1 RING domain (UniProt Q9UHC7); chain FAVQRSKDMVCGICMEVVYEKANPSERRFGILSNCNHTYCLKCIRKWRSAKQFESKIIKSCPECRITSNFVIPSE
B7: TRIM24 RING domain (UniProt O15164); chain EAARLNLLDTCAVCHQNIQSRAPKLLPCLHSFCQRCLPAPQRYLMLPAPMLGSAETPPPVPAPGSPVSGSSPFATQVGVIRCPVCSQECAERHII
B8: TRIM40 RING domain (UniProt Q6P9F5); chain LQKDNQEEGVCPICQESLKEAVSTNCGHLFCRVCLTQHVEKASASGVFCCPLCRKPCSEEVLG
Molecule	lacZ reporter activity
B1 (RNF111 RING domain)	8410
B2 (NEURL1 RING domain)	0
B3 (TRIM43 RING domain)	0
VEPSEENSKDCVVCQNGTVNWVLLPCRHTCLCDGCVKYFQQCPMCRQFVQESFALC (CGRRF1 RING domain (UniProt Q99675))	0
B4 (VPS41 RING domain)	0
B5 (SH3RF2 RING domain)	0
B6 (MKRN1 RING domain)	0
B7 (TRIM24 RING domain)	0
GAAPGPEAAECLVCSELALLVLFSPCQHRTVCEECARRMKKCIRCQVVVSKKLRPD (MIB2 RING domain (UniProt Q96AX9))	0
B8 (TRIM40 RING domain)	0

Sample 4
Target: RNA binding protein fox-1 homolog 2, RRM domain, GST-SBP tag (RBFOX2, Homo sapiens, UniProt O43251-10, residues 100-194)
Technique: RNA Bind-n-Seq
Form: RNA
Medium: in vitro
Concentration: 365 nM
Setting: natural RNA segment, single round, ends assumed
Relative to: no-protein control
Reading: higher = stronger binding
Shared flanks, not repeated: GGGAGUUCUACAGUCCGACGAUC … UGGAAUUCUCGGGUGCCAA
Residues (chain): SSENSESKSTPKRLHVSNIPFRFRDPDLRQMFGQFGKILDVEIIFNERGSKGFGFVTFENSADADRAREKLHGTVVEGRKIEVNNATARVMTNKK
Sequence	RBNS enrichment (R)
GGAUGGGGCCUCAUACAACCCUUCAUCUGCACUCAACAUUUAAUCGUGUCCUUGCUGUCUUUUUAUUUUCCUUUUUGUUUGUUAGCAAAAACCUCUAUUUAGAUUUCAAU	0.671
UGGGGCACCCGGAUCCCAGCAGCCUGGUUGCCUGCCUGUAGGAUGUCUUACAGGAGUUUGCAGAGAAACCUUCCUUGGAGGGAAAGAAAUAUCAGGGAUUUUUGUUGAAU	0.568
ACAUCAAGUUAGAAGUCUGAUUUUGAAUAAUAUCAUCAAUAAGAAGGAGUUUGGGAUUUUGGCAAAGACCAAAUACUUUCAAAUGUUGAAGAUGCAUGCGAUGAAUACCA	2.28
AAAUUCAGCAGACACCUCUUCAGCUUGAGUUCUUCACCAUCUUUUGCAACUGAAAUAUGAUGGAUAUGCUUAAGUACAACUGAUGGCAUGAAAAAAAUCAAAUUUUUGAU	0.962
GCAAGGCAUUCGUUUCCUUACUUUGGAAUAGUAUUUAUGUUGAAUUGUAAACCCACAGUUGUAAGCUUAGUGACUUCACAUGUAUGUAGCAUUGGUACUGGUCUGAGCCA	2.99
CAUGAGCACUCAAAGUGCCUUUCGAACCAUAAUGCCAUCUUGAAUUUGGGUCCUCUCGGCCCCAACUGACCAGAGGCCAACUGUGUUCACAUUUAUUUUUCUUAAAGUAC	0.264
UAUGAUUUGGAGGGUUUAAUUUCCUUUUGUGAGGAUUACUGCUACUUCUUCCUAGCCAAUUCCUCAUUCUCUCACGUGACAACAGCUGAAAGUGCCAGGUGCUAGAUUCC	0.443
UGUGAAGUCUUAAAGCACUUCUGCUUAAACUCCCAUGUGUGAGGAGUGUGCCUCCCUGUGCCCUCUCAGCUCUGAGGCUGGCCGUCUUUCGGGGUGUUCCUUUUGGCAAA	0.469
GUAAGCCAUAAUGCUCCCAAAGUGCCUUGUUUUCUCUGAUACAAACAUAUUUAUAAGGACAUAUUCCUGUGGGUUCUUGGGUGUGUUUGCCACAUCAAGAUUUUAGGGAA	0.653
CAGAAAUGAGACAUUCUGACAAUAAUGAAGUGCUUCAUGGUAUCUCAACAGUGUACUUUCUUGUAAUAUUUUCCAUCUUUUUAACCUGAGCAUGUUUGUUUUGUCUGCUU	8.14
UCCGGGUCUCCCUAGGAUAUGCCCCAGUAGCAUUUGCUGUGUAGUCUGUGUGUGAAAUUUGGGCAUUCUGCUUUUCUCUACUAAUCUUGAAGUGCUCAGUGAUUUGUGUA	1.22
GACUUGAAUGGAUAGAAUAGAAAUGAAUAAGCUGGUUUUUGUUUUUCCAAAUGAGAUUUAGAUUUGUUUUUCUCAUGCAUAAAUGAUUUUAAUUCAGUUUUAACCAGUGA	1.88

Sample 5
Target: RING finger protein unkempt homolog, zinc fingers 1-6, SBP tag (UNK, Homo sapiens, UniProt Q9C0B0, residues 30-357)
Chain of UniProt Q9C0B0 (30-357, looked up): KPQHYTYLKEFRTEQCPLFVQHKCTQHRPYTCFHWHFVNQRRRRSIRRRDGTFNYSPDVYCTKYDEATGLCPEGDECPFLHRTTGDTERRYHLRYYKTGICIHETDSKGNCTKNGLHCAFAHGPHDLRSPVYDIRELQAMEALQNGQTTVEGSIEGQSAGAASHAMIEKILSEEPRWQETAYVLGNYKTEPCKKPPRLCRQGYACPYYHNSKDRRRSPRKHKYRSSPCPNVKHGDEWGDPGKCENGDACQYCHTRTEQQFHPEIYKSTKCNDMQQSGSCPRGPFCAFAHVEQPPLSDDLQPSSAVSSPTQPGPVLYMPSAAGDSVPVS
Technique: RNA Bind-n-Seq
Form: RNA
Medium: in vitro
Concentration: 100 nM
Setting: RNA with constant flanks, vertebrate orthologous sites, ends assumed
Relative to: input RNA pool
Reading: higher = stronger binding
Shared flanks, not repeated: GGGAGUUCUACAGUCCGACGAUC … CAACAGAGGAUUGAGCAUCA
Sequence	bound/input enrichment [ratio]
CCAGUUUGUAUGUACAUUAUUCACAUUCCUCUCUGUUUCGUUUUGGUGGAAAAAGACAUUUUAGCCUUUUUAAGGUUAUUGAUUUAAUUUCAUGUUAUUUGGUUGCAUGAAGUUGCCCUU	0.394
UAUUUUUGCACAUGACAGUUUGUUUUGAGGAUCUUCAGAGGAAGGAAGAGAGGGGUGUUGUAAUAGUGGUACCUGGGUUCCUGGCCUCCCAGUGCGCCAUCACCCCACCUGGCACCUUUG	0.851
CUGUUGUUAAGCACUGUGCUGCAGCCCGUGUCUGACUUUAGUGUAACCUAGGAGAUUUUCUAGUUUUAUUUUAAUGACACUCUGAUUGGCGCCGAGCAGUGGGACAAGCUGUCUCUCCCA	0.558
UAAUGUGUUUUUAUUUAUUGAAAAUCGUUUUGUGGUAAGGAUUGUGUUAGAUUUACAAAUUAGUGAAUUGAUUCCUCUUUGUUGUGUUGCUUUCAUUGUUGAAAAUAAAUAGAACUUUGA	0.799
UUGUUUUGUACAGGGCAUUCUCUGUACUAGGUUGUUGUGGUUAUAAAGCAAUUAGCAAAACAGCUUACAUUUGUAUUUAUUUUCUAUUCCAUACCUCUCUGUCCCAUGUUUUUUCUCUUC	0.829
CCACUAUAAACAACUCAGGGCAGUACUCCCGCUAUCCUUACAGCAACCUAAAUCAGGGAUUAGUUAACAGUACAGGGAUGAACCAGAACCUAGGCCUUACCAAUAGUGCUCCCCUGAACC	1
AGCAACCCAAGGAUUCAGGACUGGUUUCACAAAUAUCCCAAGCAGAUGUGGAACUAACAGUAGAAUUGGACAACCAAGACCAUGAUGUACUAUAAUUUAAUUUAUUUUUAUGAGGAAUAU	0.56
UUAUUUUGUACAGGGCCUUCUCUGUACUAGUUCGUUGUCGUUAUAAAACAGUUAGCAAAACGGCCUACAUUUGUAUUUAUUUUCUACUCCGUAUUUUCCCCCACCUUAUGUGUGUUCUUU	0.689
UACAGCAAAAGAGCCAAGCAGUAGCAUUGUUGUUGGUUUUUUUUUUAAUGUAAAAAAAAAUAGGUCCAGACUUUGUUUCCGUAUUCAAUCUUAAAAAUAAAAAAAUACCUCAGUACUGUU	0.268

Sample 6
Target: CCNF, cyclin fold, Cln2 fusion (human)
Technique: yeast growth competition, sequencing
Medium: yeast
Setting: strong parent motif
Relative to: not given
Reading: higher = stronger binding
Parent: GMNC docking peptide (human); KNAKRNLSSEFAN
Variant	normalised enrichment score
L7I	0.728
S9P	0.693
A12G	0.66
S8G	1.02
N6H	0.399
F11Y	0.58
E10T	0.697
E10A	0.509
L7T	0.805
S9D	1.34
S9E	0.633
N6R	0.409
A3R	0.421

For quick reference, copied from above (sample 1):
Sequence	E-score
CGCGATAA	0.134
ACCTAAAT	-0.087
ATTACTGC	0.0319
GGTCAACA	-0.258
ACCTGTGC	-0.0335
ATGGCTGC	-0.126
CCAAATAA	-0.191
GGGTTACA	0.1
CGTACTCC	0.118
CAGACGAA	-0.164
